Measurements of several laboratories.
Each line is one published result; not all experiments were run side by side. “And” joins repeats or separate records; there may be more than shown. Numbers after ± are the reported error.
CDC25B: M-phase inducer phosphatase 2 (CDC25B, Homo sapiens, UniProt P30305)
gag-pol reverse transcriptase: Gag-Pol polyprotein, reverse transcriptase (gag-pol, Human immunodeficiency virus type 1 group M subtype B, UniProt P04585)

| Compound | target or system | assay | test system | conditions | scale | measurement | value |
| --- | --- | --- | --- | --- | --- | --- | --- |
| [64Cu+2].c1ccc(CNCc2ccc(CN3CCCN4CCNCCCN(CC4)CC3)cc2)nc1 | CXCR4 | – | NOD/SCID mouse, U87 and U87-stb-CXCR4 xenografts, stomach | iv, 90 min, ex vivo | – | tissue uptake | 1.86 ± 0.21 %ID/g |
| O=C(O)c1cccc(S(=O)(=O)NC2CC2)c1 | Ectonucleoside triphosphate diphosphohydrolase 1 (Homo sapiens, UniProt P49961) | enzyme activity, inhibitor, absorbance | – | 100 µM | – | inhibition | 25% |
| COc1cccc(CSc2nc(N)c3c(F)c(C#N)c(F)c(F)c3n2)c1 | CDC25B | enzyme activity, inhibitor, fluorescence | – | 20 µg/mL | – | inhibition | 83.3% |
| COC(=O)C1=CNC=C(C(=O)OC)C1c1ccc(F)c(C(F)(F)F)c1 | PGR (Homo sapiens, UniProt P06401) | cell-free assay | – | 3 µM | – | inhibition | 40 to 60% |
| CN1C(=O)[C@@H](Cc2ccc(O)cc2)NC(=O)CNC(=O)[C@H](Cc2ccc3ccccc3c2)NC(=O)[C@H](CCCNC(=N)N)NC(=O)[C@H]1CCCNC(=O)c1ccc(CNC(=O)CN2CCN(CC(=O)O)CCN(CC(=O)O)CCN(CC(=O)O)CC2)cc1 [gallium-68 labelled] | – | extrapolated to adult male | C57BL/6 mice, spleen | – | – | absorbed dose coefficient | 0.00746 mGy/MBq |
| CCNc1cc2c(cc1C)C1(c3cc(C)c(NCC)cc3O2)c2ccccc2C(=O)N1N=Cc1c[c-]c(-c2ccccn2)cc1.Cc1c(C)c(-c2ccc(-c3ccccc3)cc2)[c-](C)c1C.[Cl-].[Ir+3] | A549 | flow cytometry | – | concentration not given, 24 h | baseline: untreated | MMP-9 protein level | decreased |
| O=C1N[C@@H](CO)C[C@H](O)c2ccccc21 (relative stereo) | PARP1 (Homo sapiens, UniProt P09874) | enzyme activity, inhibitor | – | 10 µM | – | inhibition | 0% |
| Nc1ncc(/C=N/NC(=O)Cc2c[nH]c3ccccc23)cn1 | dxs (Deinococcus radiodurans, UniProt Q9RUB5) | enzyme activity, inhibitor | – | 120 µM | – | inhibition | 14% |
| COc1cc(OC2CCN(C)CC2)ccc1Nc1ncc2c(n1)n(C1CCCC1)c(=O)n2C | KIT (Homo sapiens, UniProt P10721) | enzyme activity, inhibitor | – | 1 µM | – | inhibition | > 40% |
| [64Cu+2].c1cnc(CNCc2ccc(CN3CCCN4CCNCCCN(CC4)CC3)cc2)nc1 | CXCR4 | – | NOD/SCID mouse, U87 and U87-stb-CXCR4 xenografts, blood | iv, 240 min, ex vivo | – | tissue uptake | 1.14 ± 0.29 %ID/g |
| N=C(N)NCCC[C@@H]1NC(=O)[C@H](Cc2c[nH]c3ccccc23)NC(=O)[C@@H](CC2CCCCC2)NC(=O)[C@@H]2CCCN2C(=O)[C@@H](NC(=O)CCc2ccccc2)CCCNC1=O | – | – | C57BL/6J mouse, plasma spinal cord | oral, 1 mg/kg single dose | – | MRT(0-inf) | 1.06 h |
| CC(C)(C)CCN1C[C@@H]2[C@@H](CNC(=O)c3cc(Cl)cc(Cl)c3)[C@@H]2C1.Cl | Voltage-dependent L-type calcium channel subunit alpha-1F (Homo sapiens, UniProt O60840) | calcium current, whole-cell patch clamp | HEK-293T cells | 5 µM, holding potential -90 mV, with: β2 and α2δ subunits | – | Gmax | 0.14 ± 0.053 nS/pF |
| CCNC(=O)Nc1ccc(OCc2ccccc2COc2ccc(NC(=O)NCC)cc2)cc1 | Transcription antitermination protein NusB, with NusE (nusB, Bacillus subtilis, UniProt P54520) | protein-protein interaction, inhibitor, competitive ELISA | – | 25 µM, 15 min preincubation, 37 °C, with: 200 nM GST-NusE | – | inhibition | 65% |
| O=C(O[C@H]1Cc2c(O)cc(O)cc2O[C@@H]1c1cc(O)c(O)c(O)c1)c1cc(O)c(O)c(O)c1 | Si (Rattus norvegicus, UniProt P23739) | enzyme activity, inhibitor | rat intestinal brush border vesicles | 10 µM | – | inhibition | 77.5% |
| O=c1cc(-c2ccccc2)oc2cc(OCc3cn([C@H]4O[C@H](CO)[C@@H](O)[C@H](O)[C@H]4O)nn3)cc(O)c12 | GAA (Homo sapiens, UniProt P10253) | enzyme activity, inhibitor, fluorescence | – | 1.43 mM, pH 4, lysate | – | inhibition | 96% and > 66% |
| CC#N.O=S(=O)([O-])C(F)(F)F.O=S(=O)([O-])C(F)(F)F.Oc1ccc(O)c(CN(CCN(Cc2ccccn2)Cc2ccccn2)Cc2ccccn2)c1.[Mn+2] | – | lucigenin competition from IC50 | – | with: xanthine oxidase/hypoxanthine | – | superoxide reaction rate constant | 3.4e+08 M⁻¹ s⁻¹ |
| Cc1ccc2nc(-c3ccc4nc(-c5ccc(NC(=O)c6ccc7ccccc7c6)cc5)sc4c3)sc2c1S(=O)(=O)O | – | SYBR Green I displacement | DNA substrate | 100 µM | – | DNA binding | 64 ± 7% |
| COc1cc(C(=O)NC2CCC(N3CCN(CC4CCC5(CCCC5)C4)CC3)CC2)c(F)cc1Nc1ncc2c(n1)N(C1CCCC1(F)F)CC(F)(F)C(=O)N2C (stereo not drawn) | NTRK3 (Homo sapiens, UniProt Q16288) | cell-free assay, TR-FRET | – | 10 µM | – | inhibition | 5.03% |
| Cc1cc(C=O)cc(C)c1Oc1cc(Nc2ccc(C#N)cn2)nc2ccncc12 | gag-pol reverse transcriptase | enzyme activity, inhibitor, ELISA | – | 1 µM | – | inhibition | 83.5% |
| COCCOC(=O)Nc1ccc2c(c1)c(Cc1ccc(C(=O)NS(=O)(=O)c3ccc(C(F)(F)F)cc3)cc1OC)cn2C | Tumor necrosis factor receptor superfamily member 1A (Homo sapiens, UniProt P19438) | NF-κB reporter gene, luciferase reporter | HEK293 cells | 0.5 µM, 24 h, with: TNF 10 ng/mL | – | inhibition | 32 to 40% |
| Cc1cc2c(c(=O)o1)C=C1CCC(C(C)CNCc3ccc(O)cc3)CC1O2 (stereo not drawn) | – | – | rat hippocampal CA1 slices | 10 µM, Mg2+-free, with DNQX | baseline: control | NMDA receptor fEPSP | 134 ± 9.5% |
| COc1ccc([C@H]2Cc3c(cccc3C(F)(F)F)N(CC[N+](C)(C)C)C(=O)[C@H]2C)cc1 | CACNA1C (Oryctolagus cuniculus, UniProt P15381) | barium current, blocker, whole-cell patch clamp | transfected tsA201 | 300 µM, extracellular tonic block | – | inhibition | 43 ± 3% |
| Cc1ccc(C(=O)Nc2cccc(C(F)(F)F)c2)cc1-c1ccc2c(-c3cnn(C4CC4)c3)n[nH]c2c1 | ALK (Homo sapiens, UniProt Q9UM73) | – | – | 1 µM | – | inhibition | 93.5% |
| N#Cc1c(F)c(Cl)c2nc(SCC3CCCO3)nc(N)c2c1F (stereo not drawn) | CDC25B | enzyme activity, inhibitor, fluorescence | – | 20 µg/mL | – | inhibition | 78.2% |
| CC(NC(=O)CSc1nc2c(c(-c3ccccc3)c1C#N)CN(C)CC2)c1ccccc1 (stereo not drawn) | HTR1A (Homo sapiens, UniProt P08908) | ligand displacement, radioligand | – | 10 µM | – | inhibition | ≥ 50% |
| Cc1c(Br)cnc2c1NC(=O)c1cccnc1N2C1CC1 | gag-pol reverse transcriptase | enzyme activity, inhibitor, ELISA | – | 10 µM | – | inhibition | > 85% |
| N#Cc1c(F)c(Cl)c2nc(SCc3ccc(Cl)c(Cl)c3)nc(N)c2c1F | CDC25B | enzyme activity, inhibitor, fluorescence | – | 20 µg/mL | – | inhibition | 97.3% |

A few entries again:
| Compound | target or system | assay | test system | conditions | scale | measurement | value |
| --- | --- | --- | --- | --- | --- | --- | --- |
| O=C(O)c1cccc(S(=O)(=O)NC2CC2)c1 | Ectonucleoside triphosphate diphosphohydrolase 1 (Homo sapiens, UniProt P49961) | enzyme activity, inhibitor, absorbance | – | 100 µM | – | inhibition | 25% |
| COC(=O)C1=CNC=C(C(=O)OC)C1c1ccc(F)c(C(F)(F)F)c1 | PGR (Homo sapiens, UniProt P06401) | cell-free assay | – | 3 µM | – | inhibition | 40 to 60% |
| COc1cccc(CSc2nc(N)c3c(F)c(C#N)c(F)c(F)c3n2)c1 | CDC25B | enzyme activity, inhibitor, fluorescence | – | 20 µg/mL | – | inhibition | 83.3% |
| CC(C)(C)CCN1C[C@@H]2[C@@H](CNC(=O)c3cc(Cl)cc(Cl)c3)[C@@H]2C1.Cl | Voltage-dependent L-type calcium channel subunit alpha-1F (Homo sapiens, UniProt O60840) | calcium current, whole-cell patch clamp | HEK-293T cells | 5 µM, holding potential -90 mV, with: β2 and α2δ subunits | – | Gmax | 0.14 ± 0.053 nS/pF |
